Measurements from different studies.
Lines come from different studies, so protocols differ. Numbers after ± are the reported error.
CYP2C19: Cytochrome P450 2C19 (CYP2C19, Homo sapiens, UniProt P33261)
UniProt P33261, sequence (whole entry, looked up): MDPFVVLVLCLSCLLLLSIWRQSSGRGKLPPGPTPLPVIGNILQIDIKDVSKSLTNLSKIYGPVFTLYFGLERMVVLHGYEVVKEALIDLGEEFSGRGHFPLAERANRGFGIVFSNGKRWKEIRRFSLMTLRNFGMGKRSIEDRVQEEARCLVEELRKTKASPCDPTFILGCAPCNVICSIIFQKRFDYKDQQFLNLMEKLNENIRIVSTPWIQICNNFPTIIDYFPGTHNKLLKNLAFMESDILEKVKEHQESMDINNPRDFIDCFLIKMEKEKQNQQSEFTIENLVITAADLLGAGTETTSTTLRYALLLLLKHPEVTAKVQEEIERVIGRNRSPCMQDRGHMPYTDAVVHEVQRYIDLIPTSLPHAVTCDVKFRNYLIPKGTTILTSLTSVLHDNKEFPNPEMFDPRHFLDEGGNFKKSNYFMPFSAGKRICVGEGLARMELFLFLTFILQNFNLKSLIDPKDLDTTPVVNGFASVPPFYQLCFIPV
UniProt Q06520, sequence (whole entry, looked up): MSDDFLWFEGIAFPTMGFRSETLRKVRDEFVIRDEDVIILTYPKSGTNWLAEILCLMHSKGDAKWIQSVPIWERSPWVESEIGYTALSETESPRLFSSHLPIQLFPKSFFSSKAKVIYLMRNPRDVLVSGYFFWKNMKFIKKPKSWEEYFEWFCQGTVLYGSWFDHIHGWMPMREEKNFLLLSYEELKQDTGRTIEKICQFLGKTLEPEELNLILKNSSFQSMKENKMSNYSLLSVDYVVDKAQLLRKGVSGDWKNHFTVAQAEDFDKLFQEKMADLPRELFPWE
UniProt P16662, sequence (whole entry, looked up): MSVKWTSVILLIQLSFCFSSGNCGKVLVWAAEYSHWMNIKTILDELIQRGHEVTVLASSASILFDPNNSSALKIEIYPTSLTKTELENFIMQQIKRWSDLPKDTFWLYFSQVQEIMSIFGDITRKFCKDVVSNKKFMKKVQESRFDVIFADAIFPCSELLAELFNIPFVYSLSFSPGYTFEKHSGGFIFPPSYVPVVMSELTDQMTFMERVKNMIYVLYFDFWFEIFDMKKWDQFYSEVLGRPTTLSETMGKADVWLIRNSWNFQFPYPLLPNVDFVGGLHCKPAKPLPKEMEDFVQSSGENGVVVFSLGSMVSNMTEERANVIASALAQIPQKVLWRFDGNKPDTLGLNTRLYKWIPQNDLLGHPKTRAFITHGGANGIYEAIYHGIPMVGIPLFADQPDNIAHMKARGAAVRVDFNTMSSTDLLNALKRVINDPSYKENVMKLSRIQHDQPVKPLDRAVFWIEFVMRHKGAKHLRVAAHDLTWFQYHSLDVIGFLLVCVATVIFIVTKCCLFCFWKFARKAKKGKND

Nc1nc2c([C@@H]3O[C@@H]4COP(=O)(O)O[C@H]5[C@@H](O)[C@H](c6snc7c(=O)[nH]c(N)nc67)O[C@@H]5COP(=O)(O)O[C@H]4[C@H]3O)snc2c(=O)[nH]1  molar absorption coefficient (water): 8770 M⁻¹ cm⁻¹
CN(C)C(CNC(=O)Nc1cc(C(F)(F)F)ccc1N1CCOCC1)c1ccncc1 (stereo not drawn)  blood urea nitrogen (mouse, serum; intraperitoneal, 120 mg/kg single dose): 27 mg/dL
CC[C@H](C)C(=O)N1CCC(NC(=O)Nc2ccc(OC(F)(F)F)c(F)c2)CC1  subjects with moderate TEAE (healthy volunteers; oral, 2 mg single dose, 14 (unit not given)): 16.7%
O=C(O)CCC(NP(=O)(O)OCCC[C@@H](NC(=O)CCC(NC(=O)CCCCCNC(=O)c1ccc([18F])cc1)C(=O)O)C(=O)O)C(=O)O (stereo partly drawn)  tracer uptake (CWR22Rv1 tumour model; host not given, kidney; intravenous, 2 h, tumour-bearing): 21.5 %ID/g
CC(C)[C@H](NC(=O)CNC(=O)[C@H](CCC(N)=O)NC(=O)[C@H](C)N)C(=O)O  subjects with severe adverse events (human; 3 mg/kg single dose): 0%
COc1ccc(CNc2nc(N3CCC[C@H]3CO)ncc2C(=O)NN)cc1Cl  revertant count (Salmonella typhimurium; TA1535; 62.5 µg/plate, 48 h): 56 ± 2
CCCCCc1cc(O)c2c(c1)OC(C)(C)C1CCC(CO)=CC21 (stereo not drawn)  inhibition (UGT2B7 (Homo sapiens, UniProt P16662); enzyme activity, inhibitor; pooled human liver microsomes; up to 100 µM, with: zidovudine): ≤ 50%
Nc1nc2c([C@@H]3O[C@@H]4COP(=O)(O)O[C@H]5[C@@H](O)[C@H](n6cnc7c(=O)[nH]c(N)nc76)O[C@@H]5COP(=O)(O)O[C@H]4[C@H]3O)scc2c(=O)[nH]1  absorption maximum (water): 317 nm
O=C(O)CCC(NP(=O)(O)OCCC[C@@H](NC(=O)CCC(NC(=O)CCCCCNC(=O)CCCCCNC(=O)c1ccc([18F])cc1)C(=O)O)C(=O)O)C(=O)O (stereo partly drawn)  tracer uptake (CWR22Rv1 tumour model; host not given, tumour; intravenous, 1 h, tumour-bearing): 2.92 %ID/g
C=C(C)[C@@H]1CCC(C(=O)O)=C[C@H]1c1c(O)cc(CCCCC)cc1O  half-life (CYP2C19; concentration not given, single dose, with: fluconazole 200 mg once daily): 27.1 h
COc1c(C(=O)/C=C/c2ccccc2)ccc2occc12  viability (differentiated SH-SY5Y; MTT; 10 µM; baseline: control): 103 ± 3.4%
C=C(C)[C@@H]1CCC(CO)=C[C@H]1c1c(O)cc(CCCCC)cc1O  decrease in AUC(0-tau) (CYP2C19; concentration not given, single dose, with: fluconazole steady state): 29%
C[C@]12CC[C@H](O)CC1CCC1C2[C@H](O)C(=O)[C@]2(C)[C@@H](c3ccc(=O)oc3)CC[C@]12O (stereo partly drawn)  sulfation rate (SULT2A1 (Homo sapiens, UniProt Q06520); substrate; human kidney cytosol; pH 7.4): 1.88 pmol/min/mg protein
N[C@]1(c2ccccc2Cl)CCC[C@H](O)C1=O  plasma concentration (Wistar rat, plasma; intravenous, 20 mg/kg, 20 min): 8340 ± 606 ng/mL
C[C@@](O)(C(F)F)[C@H](NC(=O)c1ccc(C#CC#CC2CC2)cc1)C(=O)NO  terminal half-life (CD-1 mouse; oral, 40 mg/kg, fasted): 2 ± 0.7 h
O=C(O)CCC(NP(=O)(O)OCCC[C@@H](NC(=O)CCC(NC(=O)c1ccc([18F])cc1)C(=O)O)C(=O)O)C(=O)O (stereo partly drawn)  tracer uptake (CWR22Rv1 tumour model; host not given, tumour; intravenous, 1 h, tumour-bearing): 1.54 %ID/g
CNc1nc(SC)nc2ccccc12  intrinsic clearance (human liver microsomes): 9.7 mL/min/g
CCC(=O)N(C)c1ccc(Cl)c(Cl)c1  revertants (Salmonella typhimurium; Ames test; TA1537; 0.10 mg/plate, with rat liver S9): 2 ± 1.2 revertants/plate
CN[C@](C)(C[18F])C(=O)O  tracer uptake (A549 tumour model; host not given, liver; 30 min, tumour-bearing): 4.6 %ID/g
COc1cc(C(=O)NCCOCCOCCOCCNC(=O)c2ccc([18F])nc2)ccc1NC(=O)C1NC(CC(C)(C)C)C(C#N)(c2ccc(Cl)cc2F)C1c1cccc(Cl)c1F (stereo not drawn)  tracer uptake (HepG2 tumour model; host not given, kidney; 4 h, tumour-bearing): 1.01 %ID/g
[64Cu+2].c1ccc(CNCc2ccc(CN3CCCNCCNCCCNCC3)cc2)nc1  uptake ratio (CXCR4; NOD/SCID mouse, tumour; 90 min; baseline: U87-stb-CXCR4 over U87): 6.44 ± 2.45
COc1c2c(cc3oc(-c4ccccc4)cc(=O)c13)OC(C)(C)C=C2  viability (differentiated SH-SY5Y; MTT; 100 µM; baseline: control): 81.5 ± 1.3%
COc1ccc(CNc2nc(N3CCC[C@H]3CO)ncc2C(=O)NNC(=O)c2cnc(N3CCC[C@H]3CO)nc2NCc2ccc(OC)c(Cl)c2)cc1Cl  revertant count (Salmonella typhimurium; TA98; 250 µg/plate, 48 h, with: rat liver S9): 38 ± 2
COc1ccc(CCNc2cc(-c3ccccc3)nc3ncnn23)cc1  intrinsic clearance (human liver microsomes): 3 mL/min/g
CSCC[C@@H]1NC(=O)[C@@H]2CSSC[C@H](NC(=O)[C@H](CO)NC(=O)[C@H](C)N)C(=O)N[C@@H](CCCNC(=N)N)C(=O)N[C@@H]([C@@H](C)O)C(=O)N3CCC[C@H]3C(=O)N[C@@H](CCCCN)C(=O)N[C@@H](CC(=O)O)C(=O)N[C@H]3CSSC[C@H](NC(=O)[C@H](CCCCN)NC(=O)[C@H](CCCNC(=N)N)NC(=O)[C@H](CC(N)=O)NC1=O)C(=O)N[C@@H](CCCCN)C(=O)N[C@H]1CSSC[C@H](NC(=O)[C@@H]4CCCN4C(=O)[C@H](CC(=O)O)NC(=O)[C@H](C)NC3=O)C(=O)N[C@@H](C)C(=O)N[C@@H](CCCCN)C(=O)N[C@@H](CCC(=O)O)C(=O)N[C@@H]([C@@H](C)O)C(=O)NCC(=O)N[C@@H](CSSC[C@@H](C(N)=O)NC(=O)[C@H](CCCNC(=N)N)NC(=O)[C@H](CC(N)=O)NC1=O)C(=O)N1CCC[C@H]1C(=O)N[C@@H](Cc1ccc(O)cc1)C(=O)NCC(=O)N[C@@H](CCCCN)C(=O)N2  Creatinine (DA rat pristane-induced arthritis, serum; subcutaneous, 0.1 mg/kg every other day, 21 days): 0.16 mg/dL
CN(C)CC1CCCCC1(O)c1cccc(O)c1 (stereo not drawn)  Papp B to A (P-glycoprotein; Caco-2 TC7; 1 µM, 3 h, pH 7.4, with: cyclosporin A 10 µM): 19.3 ± 0.5 ×10⁻⁶ cm/s
CO/C(=C\C(=O)c1ccc2occc2c1OC)c1ccccc1  viability (differentiated SH-SY5Y; MTT; 100 µM; baseline: control): 98.5 ± 4.1%

A few entries again:
COc1c2c(cc3oc(-c4ccccc4)cc(=O)c13)OC(C)(C)C=C2  viability (differentiated SH-SY5Y; MTT; 100 µM; baseline: control): 81.5 ± 1.3%
CN[C@](C)(C[18F])C(=O)O  tracer uptake (A549 tumour model; host not given, liver; 30 min, tumour-bearing): 4.6 %ID/g
Nc1nc2c([C@@H]3O[C@@H]4COP(=O)(O)O[C@H]5[C@@H](O)[C@H](n6cnc7c(=O)[nH]c(N)nc76)O[C@@H]5COP(=O)(O)O[C@H]4[C@H]3O)scc2c(=O)[nH]1  absorption maximum (water): 317 nm
